Results pooled from the literature.
A part holds a random share of what one study measured. Several values in a cell are separate wells, animals, samples, runs or records.
UniProt P29597, sequence (whole entry, looked up): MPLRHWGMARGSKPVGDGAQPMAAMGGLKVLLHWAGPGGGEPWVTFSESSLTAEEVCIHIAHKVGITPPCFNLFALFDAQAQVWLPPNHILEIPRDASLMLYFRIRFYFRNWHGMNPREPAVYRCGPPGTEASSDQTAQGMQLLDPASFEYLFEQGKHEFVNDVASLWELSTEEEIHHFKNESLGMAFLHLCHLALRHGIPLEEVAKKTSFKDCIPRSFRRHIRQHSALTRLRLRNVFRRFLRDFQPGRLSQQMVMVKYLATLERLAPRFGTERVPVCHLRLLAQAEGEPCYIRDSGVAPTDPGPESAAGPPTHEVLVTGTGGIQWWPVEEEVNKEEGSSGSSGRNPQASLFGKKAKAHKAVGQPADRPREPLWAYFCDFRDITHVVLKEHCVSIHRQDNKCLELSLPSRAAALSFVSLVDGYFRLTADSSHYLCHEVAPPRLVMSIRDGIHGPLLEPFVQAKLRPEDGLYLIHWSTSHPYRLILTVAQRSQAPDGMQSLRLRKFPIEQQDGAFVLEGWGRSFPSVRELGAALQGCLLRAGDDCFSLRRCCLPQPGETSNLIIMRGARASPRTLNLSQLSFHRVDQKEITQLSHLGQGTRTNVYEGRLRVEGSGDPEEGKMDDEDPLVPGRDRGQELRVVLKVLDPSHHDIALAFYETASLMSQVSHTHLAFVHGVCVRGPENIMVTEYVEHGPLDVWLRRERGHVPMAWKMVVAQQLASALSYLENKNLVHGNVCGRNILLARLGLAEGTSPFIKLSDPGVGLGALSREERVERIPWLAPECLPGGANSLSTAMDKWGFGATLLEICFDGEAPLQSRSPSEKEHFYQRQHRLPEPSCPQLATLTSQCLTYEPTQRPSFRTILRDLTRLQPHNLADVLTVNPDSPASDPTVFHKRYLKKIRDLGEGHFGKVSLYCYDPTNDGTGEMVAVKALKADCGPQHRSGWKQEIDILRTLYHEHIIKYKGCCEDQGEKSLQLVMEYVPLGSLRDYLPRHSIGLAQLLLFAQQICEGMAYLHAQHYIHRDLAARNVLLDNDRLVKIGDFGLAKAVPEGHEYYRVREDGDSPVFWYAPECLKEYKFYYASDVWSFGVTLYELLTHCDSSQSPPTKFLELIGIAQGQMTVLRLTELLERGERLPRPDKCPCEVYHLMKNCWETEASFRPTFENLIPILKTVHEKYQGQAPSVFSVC
UniProt Q99759, sequence (whole entry, looked up): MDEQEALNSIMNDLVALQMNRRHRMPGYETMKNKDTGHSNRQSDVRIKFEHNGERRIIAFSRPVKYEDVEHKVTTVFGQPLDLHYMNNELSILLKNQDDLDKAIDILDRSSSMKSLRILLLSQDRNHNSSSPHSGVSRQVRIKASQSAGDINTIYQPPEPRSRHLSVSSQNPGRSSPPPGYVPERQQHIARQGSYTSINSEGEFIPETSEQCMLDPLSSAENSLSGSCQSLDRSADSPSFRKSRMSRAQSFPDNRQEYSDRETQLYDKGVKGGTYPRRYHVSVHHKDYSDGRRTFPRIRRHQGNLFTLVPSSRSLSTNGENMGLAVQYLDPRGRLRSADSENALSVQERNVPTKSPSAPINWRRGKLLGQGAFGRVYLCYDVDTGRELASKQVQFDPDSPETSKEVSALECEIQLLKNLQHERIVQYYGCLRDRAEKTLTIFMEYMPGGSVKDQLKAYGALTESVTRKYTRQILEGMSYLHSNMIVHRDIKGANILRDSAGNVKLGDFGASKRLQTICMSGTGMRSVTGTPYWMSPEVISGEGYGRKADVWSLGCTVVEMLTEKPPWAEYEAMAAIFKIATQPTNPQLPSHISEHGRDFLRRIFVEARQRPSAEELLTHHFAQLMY
UniProt Q8IW41, sequence (whole entry, looked up): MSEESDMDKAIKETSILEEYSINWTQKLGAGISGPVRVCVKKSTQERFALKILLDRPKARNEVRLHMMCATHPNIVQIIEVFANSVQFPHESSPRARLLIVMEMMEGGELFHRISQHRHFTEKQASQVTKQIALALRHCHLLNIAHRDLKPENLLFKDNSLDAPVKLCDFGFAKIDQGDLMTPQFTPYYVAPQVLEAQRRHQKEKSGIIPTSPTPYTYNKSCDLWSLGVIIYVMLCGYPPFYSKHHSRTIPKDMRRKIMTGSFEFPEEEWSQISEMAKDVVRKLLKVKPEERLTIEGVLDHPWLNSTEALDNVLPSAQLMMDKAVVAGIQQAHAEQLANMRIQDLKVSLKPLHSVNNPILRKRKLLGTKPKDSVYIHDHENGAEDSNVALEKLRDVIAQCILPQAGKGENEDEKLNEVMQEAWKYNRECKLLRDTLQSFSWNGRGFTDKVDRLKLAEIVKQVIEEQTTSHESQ
UniProt P51451, sequence (whole entry, looked up): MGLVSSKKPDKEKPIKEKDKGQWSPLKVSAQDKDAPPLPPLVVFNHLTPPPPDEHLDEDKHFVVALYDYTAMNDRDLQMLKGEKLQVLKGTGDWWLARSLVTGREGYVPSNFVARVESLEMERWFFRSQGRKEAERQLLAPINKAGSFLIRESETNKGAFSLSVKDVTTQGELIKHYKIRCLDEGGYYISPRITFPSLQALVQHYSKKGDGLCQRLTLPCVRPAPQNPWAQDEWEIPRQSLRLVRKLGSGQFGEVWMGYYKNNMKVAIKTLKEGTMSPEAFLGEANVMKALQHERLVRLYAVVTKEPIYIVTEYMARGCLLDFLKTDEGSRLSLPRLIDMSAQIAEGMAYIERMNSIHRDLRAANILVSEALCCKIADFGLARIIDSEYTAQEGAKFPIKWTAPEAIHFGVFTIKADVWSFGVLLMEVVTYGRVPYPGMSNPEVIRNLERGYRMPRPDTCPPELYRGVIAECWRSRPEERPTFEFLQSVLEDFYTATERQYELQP
UniProt Q9BUB5, sequence (whole entry, looked up): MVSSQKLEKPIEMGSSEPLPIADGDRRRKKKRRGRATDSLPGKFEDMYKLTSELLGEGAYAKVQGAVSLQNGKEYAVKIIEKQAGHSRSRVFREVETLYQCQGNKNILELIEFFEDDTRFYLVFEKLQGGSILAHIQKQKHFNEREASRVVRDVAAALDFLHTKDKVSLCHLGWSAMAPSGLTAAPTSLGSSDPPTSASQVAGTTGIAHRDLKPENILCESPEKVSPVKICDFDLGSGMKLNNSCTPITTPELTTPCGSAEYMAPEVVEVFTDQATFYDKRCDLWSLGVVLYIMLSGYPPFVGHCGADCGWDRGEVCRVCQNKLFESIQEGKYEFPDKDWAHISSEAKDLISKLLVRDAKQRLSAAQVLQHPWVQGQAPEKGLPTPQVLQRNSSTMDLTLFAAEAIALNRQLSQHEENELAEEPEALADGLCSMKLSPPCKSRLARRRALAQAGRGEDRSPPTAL
UniProt P21709, sequence (whole entry, looked up): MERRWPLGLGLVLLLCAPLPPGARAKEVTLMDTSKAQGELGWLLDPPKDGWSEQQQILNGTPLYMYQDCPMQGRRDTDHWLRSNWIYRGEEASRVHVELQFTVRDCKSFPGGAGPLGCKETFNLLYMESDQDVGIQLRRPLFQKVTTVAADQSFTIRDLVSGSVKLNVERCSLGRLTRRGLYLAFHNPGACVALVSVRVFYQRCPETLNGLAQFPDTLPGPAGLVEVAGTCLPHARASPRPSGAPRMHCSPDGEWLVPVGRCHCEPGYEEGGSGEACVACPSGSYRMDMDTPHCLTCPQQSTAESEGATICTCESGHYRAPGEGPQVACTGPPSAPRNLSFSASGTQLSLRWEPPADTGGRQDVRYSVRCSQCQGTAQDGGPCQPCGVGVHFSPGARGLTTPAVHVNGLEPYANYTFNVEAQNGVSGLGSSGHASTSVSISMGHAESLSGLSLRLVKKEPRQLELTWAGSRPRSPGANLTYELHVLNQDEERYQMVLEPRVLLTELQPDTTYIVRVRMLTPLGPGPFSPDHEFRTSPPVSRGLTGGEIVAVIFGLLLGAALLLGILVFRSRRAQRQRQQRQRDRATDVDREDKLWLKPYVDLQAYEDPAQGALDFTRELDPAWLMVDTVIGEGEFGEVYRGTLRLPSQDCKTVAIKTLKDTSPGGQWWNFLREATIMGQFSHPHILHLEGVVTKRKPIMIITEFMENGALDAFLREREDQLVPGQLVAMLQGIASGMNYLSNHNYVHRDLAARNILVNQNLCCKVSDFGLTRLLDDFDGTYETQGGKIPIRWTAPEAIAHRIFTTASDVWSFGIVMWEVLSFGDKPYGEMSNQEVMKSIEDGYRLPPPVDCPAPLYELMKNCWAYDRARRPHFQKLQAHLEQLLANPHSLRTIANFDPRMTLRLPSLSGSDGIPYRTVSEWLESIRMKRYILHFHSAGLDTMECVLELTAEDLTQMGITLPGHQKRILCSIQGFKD
UniProt Q13555, sequence (whole entry, looked up): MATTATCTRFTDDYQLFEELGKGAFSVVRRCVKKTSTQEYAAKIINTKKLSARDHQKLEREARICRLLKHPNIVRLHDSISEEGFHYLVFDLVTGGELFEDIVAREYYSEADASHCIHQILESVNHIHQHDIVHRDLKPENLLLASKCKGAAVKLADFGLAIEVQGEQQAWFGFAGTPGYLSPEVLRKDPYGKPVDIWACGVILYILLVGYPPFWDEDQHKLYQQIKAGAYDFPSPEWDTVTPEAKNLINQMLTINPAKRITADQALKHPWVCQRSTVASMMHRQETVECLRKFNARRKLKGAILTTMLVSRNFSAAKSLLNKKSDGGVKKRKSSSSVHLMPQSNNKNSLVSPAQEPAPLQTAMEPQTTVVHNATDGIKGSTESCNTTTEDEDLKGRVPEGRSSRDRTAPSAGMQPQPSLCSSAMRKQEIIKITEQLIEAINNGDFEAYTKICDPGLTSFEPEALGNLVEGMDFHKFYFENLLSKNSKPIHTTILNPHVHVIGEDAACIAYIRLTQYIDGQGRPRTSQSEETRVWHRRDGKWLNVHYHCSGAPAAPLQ

Series 1 — organism: Sarcocystis neurona; observed: parasite growth; tested at: 10 µM; time: 96 h; notes: first screen; baseline: untreated
C[C@@H]1C[C@H]2[C@@H]3CCC4=CC(=O)C=C[C@]4(C)[C@@]3(F)[C@@H](O)C[C@]2(C)[C@H]1C(=O)CO: “log2 fold change” -0.17.
Under “log2 fold change”, CCCC(=O)Nc1ccc(OCC(O)CNC(C)C)c(C(C)=O)c1 (stereo not drawn) is recorded as -0.19.
N[C@@H](C(=O)N[C@@H]1C(=O)N2C(C(=O)O)=C(CSc3c[nH]nn3)CS[C@H]12)c1ccc(O)cc1: “log2 fold change” -0.0475.
For Nc1ccn([C@H]2CC[C@@H](CO)O2)c(=O)n1, “log2 fold change” read 0.23.
Nc1nc(=O)c2nc(CNc3ccc(C(=O)N[C@@H](CCC(=O)O)C(=O)O)cc3)cnc2[nH]1: “log2 fold change” 0.36.
c1ccc2c(CC3=NCCN3)cccc2c1 — result for “log2 fold change”: 0.14.
C[C@@](Cc1ccc(O)c(O)c1)(NN)C(=O)O: “log2 fold change” 0.09.
Under “log2 fold change”, CCN1CCN(c2cc3c(cc2F)c(=O)c(C(=O)O)cn3C2CC2)CC1 is recorded as -0.26.
CCC(=O)NS(=O)(=O)c1ccc(-c2c(-c3ccccc3)noc2C)cc1: “log2 fold change” 0.00861.
For CN(C)c1nc(N(C)C)nc(N(C)C)n1, “log2 fold change” read 0.29.
CO[C@H]1/C=C/O[C@@]2(C)Oc3c(C)c(O)c4c(O)c(c(/C=N/N5CCN(C)CC5)c(O)c4c3C2=O)NC(=O)/C(C)=C\C=C\[C@H](C)[C@H](O)[C@@H](C)[C@@H](O)[C@@H](C)[C@H](OC(C)=O)[C@@H]1C: “log2 fold change” 0.44.
Under “log2 fold change”, CN(C)C(=O)C(CCN1CCC(O)(c2ccc(Cl)cc2)CC1)(c1ccccc1)c1ccccc1 is recorded as -0.43.
COC(=O)C1=C(C)NC(C)=C(C(=O)OC)C1c1ccccc1[N+](=O)[O-] — result for “log2 fold change”: -0.1.

Series 2 — observed: cell-free assay; technique: competition with immobilised ligand; tested at: 1 µM
SMILES: N#CC1(c2ccccn2)CCN(Cc2cc(C(=O)N3CCCC3)c(=O)n3ccccc23)CC1
Serine/threonine-protein kinase 32C (STK32C, Homo sapiens, UniProt Q86UX6) — remaining binding: 100%.
The remaining binding was 98% (Receptor-type tyrosine-protein kinase FLT3 (FLT3, Homo sapiens, UniProt P36888, D835V)).
For Epidermal growth factor receptor (EGFR, Homo sapiens, UniProt P00533, A750P/del747-749): remaining binding read 94%.
Non-receptor tyrosine-protein kinase TYK2, JH1 (TYK2, Homo sapiens, UniProt P29597) — remaining binding: 91%.
It gave 95% for remaining binding (Bone morphogenetic protein receptor type-1B (BMPR1B, Homo sapiens, UniProt O00238)).
It gave 98% for remaining binding (Serine/threonine-protein kinase 36 (STK36, Homo sapiens, UniProt Q9NRP7)).
Hepatocyte growth factor receptor (MET, Homo sapiens, UniProt P08581, Y1235D) — remaining binding: 97%.
It gave 90% for remaining binding (Receptor-type tyrosine-protein kinase FLT3 (FLT3, Homo sapiens, UniProt P36888, D835V/ITD)).
For Receptor-type tyrosine-protein kinase FLT3 (FLT3, Homo sapiens, UniProt P36888, ITD): remaining binding read 100%.
For Tyrosine-protein kinase ABL1, non-phosphorylated (ABL1, Homo sapiens, UniProt P00519, F317L): remaining binding read 92%.
For Calcium/calmodulin-dependent protein kinase type II subunit delta (CAMK2D, Homo sapiens, UniProt Q13557): remaining binding read 97%.
The remaining binding was 100% (Serine/threonine-protein kinase Sgk2 (SGK2, Homo sapiens, UniProt Q9HBY8)).
The remaining binding was 100% (Serine/threonine-protein kinase haspin (HASPIN, Homo sapiens, UniProt Q8TF76)).
For Serine/threonine-protein kinase WNK4 (WNK4, Homo sapiens, UniProt Q96J92): remaining binding read 81%.
The remaining binding was 100% (Mitogen-activated protein kinase kinase kinase 19 (MAP3K19, Homo sapiens, UniProt Q56UN5)).
Mitogen-activated protein kinase kinase kinase 3 (MAP3K3, Homo sapiens, UniProt Q99759) — remaining binding: 92%.
It gave 93% for remaining binding (Insulin receptor-related protein (INSRR, Homo sapiens, UniProt P14616)).
The remaining binding was 78% (Activin receptor type-2A (ACVR2A, Homo sapiens, UniProt P27037)).
For Phosphatidylinositol 5-phosphate 4-kinase type-2 beta (PIP4K2B, Homo sapiens, UniProt P78356): remaining binding read 62%.
The remaining binding was 94% (Inhibitor of nuclear factor kappa-B kinase subunit epsilon (IKBKE, Homo sapiens, UniProt Q14164)).
For Dual specificity tyrosine-phosphorylation-regulated kinase 1B (DYRK1B, Homo sapiens, UniProt Q9Y463): remaining binding read 53%.
It gave 98% for remaining binding (Receptor-type tyrosine-protein kinase FLT3, autoinhibited (FLT3, Homo sapiens, UniProt P36888)).
For Serine/threonine-protein kinase D3 (PRKD3, Homo sapiens, UniProt O94806): remaining binding read 100%.
The remaining binding was 80% (Dual serine/threonine and tyrosine protein kinase (DSTYK, Homo sapiens, UniProt Q6XUX3)).
It gave 73% for remaining binding (Tyrosine-protein kinase Blk (BLK, Homo sapiens, UniProt P51451)).

Series 3 — Compound: c1ccc2c(-c3ccncc3)c[nH]c2c1; observed: enzyme activity; action: inhibitor; tested at: 0.5 µM; baseline: control
The remaining activity was 105% (Ephrin type-A receptor 1 (EPHA1, Homo sapiens, UniProt P21709)).
It gave 101% for remaining activity (Non-receptor tyrosine-protein kinase TYK2 (TYK2, Homo sapiens, UniProt P29597)).
For Ephrin type-A receptor 8 (EPHA8, Homo sapiens, UniProt P29322): remaining activity read 101%.
The remaining activity was 79.2% (Casein kinase I isoform gamma-1 (CSNK1G1, Homo sapiens, UniProt Q9HCP0)).
It gave 92.6% for remaining activity (Calcium/calmodulin-dependent protein kinase type II subunit gamma (CAMK2G, Homo sapiens, UniProt Q13555)).
For Lymphokine-activated killer T-cell-originated protein kinase (PBK, Homo sapiens, UniProt Q96KB5): remaining activity read 97.1%.
The remaining activity was 96.1% (MAP kinase-activated protein kinase 5 (MAPKAPK5, Homo sapiens, UniProt Q8IW41)).
For MAP kinase-interacting serine/threonine-protein kinase 1 (MKNK1, Homo sapiens, UniProt Q9BUB5): remaining activity read 75.5%.
NUAK family SNF1-like kinase 2 (NUAK2, Homo sapiens, UniProt Q9H093) — remaining activity: 136%.
The remaining activity was 127% (Interleukin-1 receptor-associated kinase 1 (IRAK1, Homo sapiens, UniProt P51617)).

Series 4 — cell line: mouse MPNST tumor cells; technique: high-content nuclear imaging; refers to: cell number; tested at: 10 µM; time: 12 h; notes: mean of 2 replicates; baseline: plate mean; reading: higher = more cells
With COC(=O)Nc1ccc(-c2nc(N3CCOCC3)c3cnn(C4CCN(Cc5cccnc5)CC4)c3n2)cc1 the nuclei count was -3.76 z-score.
Nc1[nH]nc2nnc(-c3c(-c4ccccc4)nn4ccccc34)cc12 gave a nuclei count of 1.94 z-score.
The nuclei count of CN(C(=O)CCCOc1ccc2[nH]c(=O)ccc2c1)C1CCCCC1 is reported as -0.0715 z-score.
c1cc(OCCN2CCCCC2)cc(-c2n[nH]c3ccc(-c4nnc[nH]4)cc23)c1 gave a nuclei count of 2.44 z-score.
CCN(CC)CCOC(=O)c1ccc(N)cc1 has a nuclei count of 0.271 z-score.
Nc1ncn([C@@H]2O[C@H](CO)[C@@H](O)[C@H]2O)c(=O)n1 gave a nuclei count of -2.43 z-score.
For CC[C@H](CO)Nc1nc(NCc2ccccc2)c2ncn(C(C)C)c2n1, the nuclei count was 1.14 z-score.
Cc1ncc(Cl)cc1NCc1ccc(C(=O)N[C@@H](CC2CCCC2)C(=O)NC2CC2)s1 has a nuclei count of 0.199 z-score.
O=C(Nc1ccccc1)N1CCC(Cc2cnc3ccccc3c2)CC1 gave a nuclei count of 0.788 z-score.
The nuclei count of CCc1c2c(nc3ccc(O)cc13)-c1cc3c(c(=O)n1C2)COC(=O)[C@]3(O)CC is reported as -2.02 z-score and 1.07 z-score.
For O=C(O)c1ccc(N2C(=O)C(=Cc3ccc(-c4ccc([N+](=O)[O-])cc4)o3)C=C2c2ccccc2)cc1, the nuclei count was -0.362 z-score.
The nuclei count of Fc1ccc(CNc2ncnc3ccc(F)cc23)cc1 is reported as 0.383 z-score.
